Assay results pooled from the literature.
“And” joins repeats or separate records; there may be more than shown. Numbers after ± are the reported error.
Oprm1: Mu-type opioid receptor (Oprm1, Mus musculus, UniProt P42866)
SIGMAR1: Sigma non-opioid intracellular receptor 1 (SIGMAR1, Cavia porcellus, UniProt Q60492)
Glutamate receptor ionotropic, kainate 1: Glutamate receptor ionotropic, kainate 1 (Rattus norvegicus, UniProt P22756)

Structure (SMILES) | target or system | assay | test system | conditions | measurement | value
Cc1cn([C@H]2C[C@H](O)[C@@H](COP(=O)(O)NP(=O)(O)OP(=O)(O)O)O2)c(=O)[nH]c1=O | Deoxynucleoside triphosphate triphosphohydrolase SAMHD1 (SAMHD1, Homo sapiens, UniProt Q9Y3Z3) | enzyme activity, inhibitor | – | – | Ki | 0.145 µM
CCCC[C@H](NC=O)C(=O)N[C@@H](CC(C)C)C(=O)N[C@@H](Cc1ccccc1)C(=O)O | fMet-Leu-Phe receptor (FPR1, Homo sapiens, UniProt P21462) | binding, inhibitor | – | – | Ki | 0.067 ± 0.016 µM
CCCc1ccc2c(c1)sc(=O)n2CCN1CCCCCC1 | Sigma intracellular receptor 2 (Tmem97, Rattus norvegicus, UniProt Q5U3Y7) | radioligand binding | rat liver membranes | with: [3H]DTG 5 nM, (+)-pentazocine 300 nM | Ki | 0.248 ± 0.015 µM
CN(CCc1ccc(Cl)c(Cl)c1)CCN1CCCC1 | Sigma-2 receptor/TMEM97 (Cavia porcellus, UniProt H0V073) | binding | guinea pig brain | sigma-2 site, high-affinity site, with: 3 nM [3H]DTG, (+)-pentazocine | Ki | 0.0166 µM
CCCCN1C(=O)C(C=CC=CC=C2C(=O)N(c3ccc(S(=O)(=O)O)cc3)N=C2C)C(=O)N(CCCC)C1=O | SLC4A1 (Homo sapiens, UniProt P02730) | 36Cl exchange flux, inhibitor, extrapolated to zero chloride | human erythrocytes | 0 °C, unloaded forms, short exposure | Ki | 0.716 µM and 0.72 µM
CC(C)[C@@H](CN1CCC(c2cccc(O)c2)CC1)NC(=O)[C@H]1Cc2ccccc2CN1 | Nociceptin receptor (OPRL1, Homo sapiens, UniProt P41146) | ligand displacement, radioligand | – | – | Ki | 0.0484 µM
O=C(/C=C/c1ccoc1)N[C@@H]1CC[C@@]2(O)[C@H]3Cc4ccc(O)c5c4[C@@]2(CCN3CC2CC2)[C@H]1O5 | Oprm1 | ligand displacement, radioligand | – | – | Ki | 0.00032 µM
O=C(CN(C1CCCCC1)C1CCCCC1)Nc1ccc(S(=O)(=O)c2ccc(NC(=O)CN(C3CCCCC3)C3CCCCC3)cc2)cc1 | Protease, with pVIc peptide (L3, Human adenovirus C serotype 2, UniProt P03252) | competitive inhibitor, Dixon plot | human adenovirus 2 | – | Ki | 0.4 µM
N[C@H](CCC(=O)O)C(=O)O | anandamide membrane transporter, mouse | [3H]anandamide uptake, non-competitive inhibitor | mouse brain synaptosomes | – | Ki | 1.1 ± 0.09 µM
CCCCCCCC(=O)O[C@H]1/C(=C/C(=O)OC)C[C@H]2C[C@H]([C@@H](C)O)OC(=O)CCCC(=O)OCC(C)(C)[C@]1(O)O2 | Protein kinase C theta type (PRKCQ, Homo sapiens, UniProt Q04759) | ligand displacement, radioligand | – | – | Ki | 0.283 µM
COc1ccc(CCN2CCN(C/C=C/I)CC2)cc1OC | Sigma intracellular receptor 2 (Tmem97, Mus musculus, UniProt Q8VD00) | ligand displacement, radioligand | – | cell membranes | Ki | 1.45 µM
CC(C)=CCC12OC1(O)C(=O)c1c(O)cccc1C2=O (centres unmarked) | Tyrosyl-DNA phosphodiesterase 1 (TDP1, Homo sapiens, UniProt Q9NUW8) | mixed noncompetitive inhibitor | – | enzyme-substrate complex | Ki | 9.95 ± 1.14 µM
CN(C(=O)/C=C/c1ccoc1)[C@H]1CC[C@@]2(O)[C@H]3Cc4cccc5c4[C@@]2(CCN3CC2CC2)[C@H]1O5 | Delta-type opioid receptor (Oprd1, Mus musculus, UniProt P32300) | binding, radioligand displacement | – | with: [3H]diprenorphine | Ki | 0.116 ± 0.024 µM
CN1CCN(CCc2ccc(Cl)c(Cl)c2)CC1 | SIGMAR1 | ligand displacement, radioligand | – | – | Ki | 0.00881 µM
COc1cc2c(cc1OCCCF)CCN1CC(CC(C)C)C(C3CO3)CC21 (single isomer, unassigned; (+)) | Synaptic vesicular amine transporter (Slc18a2, Rattus norvegicus, UniProt Q01827) | binding | rat striatal homogenate | with: [3H](±)-tetrabenazine | Ki | 8e-05 ± 1e-05 µM
c1ccc(CCN2CCCCC2)cc1 | Sigma non-opioid intracellular receptor 1 (Sigmar1, Rattus norvegicus, UniProt Q9R0C9) | ligand displacement, radioligand | – | – | Ki | 0.03 µM
CCCN(CCC1(O)CC(NS(=O)(=O)c2ccccc2)C1)[C@H]1CCc2nc(N)sc2C1 (stereo in doubt) | D(3) dopamine receptor (Drd3, Rattus norvegicus, UniProt P19020) | ligand displacement, radioligand | – | cell membranes | Ki | 0.0019 µM
CCCCCCCCCCCCCCC[C@@H](O)[C@@H](N)CO | SIGMAR1 | ligand displacement, radioligand | – | cell membranes | Ki | 35 µM

Structure (SMILES) | target or system | assay | test system | conditions | measurement | value
Nc1nc(F)nc2c1ncn2[C@@H]1O[C@H](CO)[C@@H](O)[C@@H]1O | Adenosine receptor A1 (ADORA1, Homo sapiens, UniProt P30542) | ligand displacement, radioligand | – | cell membranes | Ki | 3 µM
O=C(O)C[C@H]1CCN[C@@H]1C(=O)O | Glutamate receptor ionotropic, kainate 1 | ligand displacement, radioligand | – | – | Ki | 2.8 µM
O=P(O)(O)Oc1ccccc1OP(=O)(O)O | Signal transducer and activator of transcription 5A, SH2 (Homo sapiens, UniProt P42229) | ligand displacement, FP | – | – | Ki | 34 µM
N=C(N)NC(=O)c1ccc(C(=O)NCCCC[C@H](NC(=O)[C@H](Cc2c[nH]c3ccccc23)NC(=O)[C@H](CCCCN)NC(=O)CNC(=O)CCC(=O)N/N=C/c2ccc(/C=N/NC(=O)CCC(=O)NCC(=O)N[C@@H](CCCCN)C(=O)N[C@@H](Cc3c[nH]c4ccccc34)C(=O)N[C@@H](CCCCNC(=O)c3ccc(C(=O)NC(=N)N)[nH]3)C(N)=O)cc2)C(N)=O)[nH]1 | Tryptase beta-2 (TPSB2, Homo sapiens, UniProt P20231) | non-competitive inhibitor | – | – | Ki | 0.078 ± 0.0031 µM
CN(C(N)=Nc1cccc2ccccc12)c1cccc(I)c1 | NMDA receptor PCP site, rat | radioligand binding | rat brain homogenate | 2 h, 23 °C, with: [3H](+)-MK-801 0.50 nM, L-glutamate 100 µM, glycine 30 µM | Ki | 0.00165 ± 0.00016 µM
CN[C@@](C)(C[18F])C(=O)O | – | – | SCID mice (SK-OV-3 xenograft) | 120 min after injection | tumour uptake | 6.9 ± 3.3 %ID/g
O=C(/C=C/c1ccoc1)N[C@@H]1CC[C@@]2(O)[C@H]3Cc4cccc5c4[C@@]2(CCN3CC2CC2)[C@H]1O5 | Oprm1 | ligand displacement, radioligand | – | – | Ki | 0.0251 µM
CCCC[C@]1(C(=O)O)C[C@H]1[C@H](N)C(=O)O.Cl | kainate receptor, rat | [3H]kainate displacement | cortical synaptosomes | – | Ki | > 100 µM
O=[As](O)(O)O | Triosephosphate isomerase, glycosomal (Trypanosoma brucei brucei, UniProt P04789, I172A) | inhibitor | – | pH 7.5, 25 °C, ionic strength 0.1, with: DHAP substrate | Ki | 8600 µM
CC[C@H](C)CCCCC(=O)N[C@@H](CCN)C(=O)N[C@H](C(=O)N[C@@H](CCN)C(=O)N[C@H]1CCNC(=O)[C@H]([C@@H](C)O)NC(=O)[C@H](CCN)NC(=O)[C@H](CCN)NC(=O)[C@H](CC(C)C)NC(=O)[C@@H](CC(C)C)NC(=O)[C@H](CCN)NC1=O)[C@@H](C)O | lipopolysaccharide | binding, displacement | Pseudomonas aeruginosa | – | Ki | 3.8 ± 0.1 µM
O=C(O)C1CC1 | putA, PRODH domain (Escherichia coli, UniProt P09546) | competitive inhibitor | – | pH 7.5, room temperature, with: L-proline | Ki | 3100 ± 300 µM
O=C(c1ccc(O)cc1)c1c(-c2ccc(O)cc2)sc2cc(O)ccc12 | Estrogen receptor (ESR1, Homo sapiens, UniProt P03372) | ligand displacement, radioligand | – | – | Ki | 0.00067 µM
CC(=O)P(=O)(O)OCc1ccccc1 | 1-deoxy-D-xylulose-5-phosphate synthase (dxs, Escherichia coli, UniProt P77488) | uncompetitive inhibitor, IspC-coupled spectrophotometric | – | with: D-GAP | Ki | 70 ± 8 µM
CCCCCCCCCCCCC/C=C/[C@@H](O)[C@H](CO)N(C)C | SIGMAR1 | ligand displacement, radioligand | – | – | Ki | 0.12 µM
Cc1ccc(S(=O)(=O)Nc2cc(C(=O)O)cc([C@H]3CCN[C@@H]3C(=O)O)c2)cc1 (racemic) | Glutamate receptor ionotropic, kainate 1 | ligand displacement, radioligand | – | cell membranes | Ki | 19 µM
COc1cc(O)c2c(O)c3c(=O)cc(C)oc3cc2c1 | Amine oxidase [flavin-containing] A (MAOA, Homo sapiens, UniProt P21397) | inhibitor | – | uncompetitive, ES complex | Ki | 5.96 µM
COP(=O)(O)C(C)=O | 1-deoxy-D-xylulose-5-phosphate synthase (dxs, Escherichia coli, UniProt P77488, H299A) | enzyme activity, inhibitor | – | enzyme 3 µM, with: D-GAP 500 µM, pyruvate 2 mM | Ki | 1080 µM

Some of these lines once more:
Structure (SMILES) | target or system | assay | test system | conditions | measurement | value
CC(C)[C@@H](CN1CCC(c2cccc(O)c2)CC1)NC(=O)[C@H]1Cc2ccccc2CN1 | Nociceptin receptor (OPRL1, Homo sapiens, UniProt P41146) | ligand displacement, radioligand | – | – | Ki | 0.0484 µM
O=C(/C=C/c1ccoc1)N[C@@H]1CC[C@@]2(O)[C@H]3Cc4ccc(O)c5c4[C@@]2(CCN3CC2CC2)[C@H]1O5 | Oprm1 | ligand displacement, radioligand | – | – | Ki | 0.00032 µM
O=C(CN(C1CCCCC1)C1CCCCC1)Nc1ccc(S(=O)(=O)c2ccc(NC(=O)CN(C3CCCCC3)C3CCCCC3)cc2)cc1 | Protease, with pVIc peptide (L3, Human adenovirus C serotype 2, UniProt P03252) | competitive inhibitor, Dixon plot | human adenovirus 2 | – | Ki | 0.4 µM
N[C@H](CCC(=O)O)C(=O)O | anandamide membrane transporter, mouse | [3H]anandamide uptake, non-competitive inhibitor | mouse brain synaptosomes | – | Ki | 1.1 ± 0.09 µM
CCCCCCCC(=O)O[C@H]1/C(=C/C(=O)OC)C[C@H]2C[C@H]([C@@H](C)O)OC(=O)CCCC(=O)OCC(C)(C)[C@]1(O)O2 | Protein kinase C theta type (PRKCQ, Homo sapiens, UniProt Q04759) | ligand displacement, radioligand | – | – | Ki | 0.283 µM
